Measurements pooled from the literature.
Each numbered part is a random draw from the data of one study; scales do not carry over between parts.

Set 1 — target: human cyclin B1; read-out: peptide binding; method: yeast competitive growth sequencing; form: peptide; organism: Saccharomyces cerevisiae; strain: cyclin B1-Cln2 fusion; concentration: concentration not given; setting: peptide tiling library; direction: direction not given; measurement: binding enrichment score
EPKTLFLGAGDFQF: 0.438
KDDDKAWEYEERDRRS: -0.0912
IPDRSTKPVVFSPT: -0.354
VLLKRLQDVVSERANH: 0.098
SSEVARHLLFQSHM: 0.268
NARRSLNFGGSTGT: 0.247
SDSTVTKLDFDLEP: 1.89
TRRRLFVENDSP: 0.617
GQLVIPLDELTLDTSF: 0.986
CFRCLLFSFSGRSGVE: -0.535
RRVLCFDS: 0.112
GLPDFVFQQQPVESEA: 0.403
DSDSDSEGGAAGGEAD: 1.22
EPRNLLSLFEDTLDPT: 0.783
NNIRKALSFDNRGEEH: 0.334
VEEEFFALRKRTPSAG: 0.27
TARRIFQEPTEPKTKA: 0.564
ESSTVSEEDYFSSHRD: -0.152
QNPCGSKACRRLFGPV: 0.065
NFETPEAETPIRSPFK: 0.38
PLRKAKRARLCSSSSS: 1.03
RNRGPKLNAMLRLGVL: -0.559
EAAPPTQEAQGETEPT: 1.29
DVSERGYVILPNDYFE: 0.151
IVLICAKRSLCAAFSV: -0.0182

Set 2 — method: RNA Bind-n-Seq; form: RNA; sample: in vitro; concentration: 365 nM; relative to: no-protein control; direction: higher = stronger binding; measurement: RBNS enrichment (R)
Target: RNA binding protein fox-1 homolog 2, RRM domain, GST-SBP tag (RBFOX2, Homo sapiens, UniProt O43251-10, residues 100-194)
Setting: natural RNA segment, single round, ends assumed
Construct (chain): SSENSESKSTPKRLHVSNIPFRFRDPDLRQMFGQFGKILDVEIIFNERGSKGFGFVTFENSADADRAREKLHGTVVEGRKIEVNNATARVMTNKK
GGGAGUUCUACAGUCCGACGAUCAUUCUAAGUAAGAUAGUAAAUCUAAGGUCACUGAGCCAAAUCCUUUUCAAUAGGCAUAUAUUAACAGGCUGCUUAUUUUGGCGGAGGUUACAUAUGGAUGAAAAUGAAUCUGGAAUUCUCGGGUGCCAA: 0.298
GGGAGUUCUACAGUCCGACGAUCUCGUUCAUUAAACUGACAGAUAUUUUUCUAGGAAGGACUAUUAUCAGUUUCCAAAUGCAAUACUCUAUUCUGGUUUUUCCUGAGUGAGCCUGAUUUUGUUCCUGUUUUUCUGGAAUUCUCGGGUGCCAA: 0.374
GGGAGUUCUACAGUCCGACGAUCUGUCCCUUGCACCCUAUGAUUAUUCUCAUGCUGCACUUACUGUUUACAUUUGUUUUAUUGUACAUAGGUUUGUAAACAUUAUUGCCUAAGAUAUUUGUAUAUAACUUGGGUGGAAUUCUCGGGUGCCAA: 0.404
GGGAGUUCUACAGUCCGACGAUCGGACAGCCCUCGACCUUAACUAUUUUCGAGACAGCACUGUGAAUCCAACCAAAAUGUCAAGUCCGUUCCGAAGGCAUUUUCCACUAGUUUUUGGACUAUGUAAACCACAUUGGAAUUCUCGGGUGCCAA: 0.43
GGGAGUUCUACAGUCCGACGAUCGGAACAGGGGAAGGGGAAUGUUUUCAAGACAUUUAUCCUGUUAGAAAAUCUUACAGACUAGCUUUAGGAACAUAGUGUCAAACAAAGCUGCUGCUUUAGUCUUCUUUUCUUGGAAUUCUCGGGUGCCAA: 0.299
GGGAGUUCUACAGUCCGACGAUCAUUUUGUAUGUUUUUUUAAAUGUGUCUUUGAUGCAUACUUUAGAAGCACACUGGCUCGCGGUUUCCAUCCCUCUUGCCUUGGGACACUCUUGAGGCUGGCAGCCCUCCUGUGGAAUUCUCGGGUGCCAA: 0.306
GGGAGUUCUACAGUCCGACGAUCUUCCUUUGGGUUUCCAGAGUCUCUGGGAGAAGAAGGGUGGGCGGGUGGACCCAGAGCGACCCAGAUUGGGUGGCUGGGGCGGGGCAGUAGGGUUCAUUCUCCUAGUGCCCUGGAAUUCUCGGGUGCCAA: 0.169
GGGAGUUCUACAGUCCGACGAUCAAUCAUCCCCGUGACCUCCUCAGCUGCUGACAAUCCUAUUUAGCAUAUGCAAAUCUUUUAUUGUAGAGGACCAGACCAUCGCUGCUGAAGGGACAGGCUGGUGGAGCCUGUGGAAUUCUCGGGUGCCAA: 0.476
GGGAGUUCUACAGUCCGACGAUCGGAAGCUUGUCUGCCCCUCACCAGAGGUGGCCUCUGCACAUGGCACACCAGCCGGGGCUGUACCGCACUCGUGGUGGCUUGUUGUCCUCUCGACUCCUGUGGCAUGGUGCUGGAAUUCUCGGGUGCCAA: 0.684

Set 3 — method: RNA Bind-n-Seq; form: RNA; sample: in vitro; concentration: 1 µM; setting: whole 134-nt RNA, ends assumed; added: 150 mM KCl; relative to: input library; direction: higher = stronger binding; measurement: log2 enrichment
Target: Ras GTPase-activating protein-binding protein 1, C-terminal RGG region (G3BP1, Homo sapiens, UniProt Q13283)
Chain of UniProt Q13283 (whole entry, looked up): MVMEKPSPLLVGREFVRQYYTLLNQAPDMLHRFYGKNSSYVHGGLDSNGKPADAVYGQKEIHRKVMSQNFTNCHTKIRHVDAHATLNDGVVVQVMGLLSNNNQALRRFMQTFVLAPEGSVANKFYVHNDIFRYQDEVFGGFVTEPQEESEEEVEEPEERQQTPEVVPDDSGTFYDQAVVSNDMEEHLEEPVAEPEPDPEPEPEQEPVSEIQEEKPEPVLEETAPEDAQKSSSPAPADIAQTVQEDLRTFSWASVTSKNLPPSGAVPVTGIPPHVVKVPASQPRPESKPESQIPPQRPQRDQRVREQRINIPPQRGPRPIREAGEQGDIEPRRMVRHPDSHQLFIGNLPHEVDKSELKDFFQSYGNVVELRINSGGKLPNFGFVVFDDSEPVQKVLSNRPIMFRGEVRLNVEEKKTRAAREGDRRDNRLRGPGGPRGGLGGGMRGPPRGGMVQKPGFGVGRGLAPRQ
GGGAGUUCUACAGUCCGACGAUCUGGCCCUGGUGGCAUGCGGGGAGGAAGAGGUGGCCUCAUGGAUCGUGGUGGUCCCGGAGGAAUGUUCAGAGGUGGCCGUGGUGGAGACAGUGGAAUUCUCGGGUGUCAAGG: 1.75
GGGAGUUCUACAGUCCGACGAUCCUGUGCUACACAUCGUAUGUACCGAAUCGGGGAAAAAAAGGGGUUUUUUUGGGGAAAGGGGAAAGUAUUAUGUUACGCCGUUCGGAUCUGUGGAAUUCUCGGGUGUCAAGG: 0.113
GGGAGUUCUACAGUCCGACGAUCUUCCUCAAGUCCUGUGCUACACAUCGUAUGUACCGAAUCGUGUGUGUGUGUAAAGUAUUAUGUUACGCCGUUCGGAUCUGCACUUCCAGCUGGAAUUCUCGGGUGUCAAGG: -0.143
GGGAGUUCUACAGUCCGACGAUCCCUGUGCUACACAUCGUAUGUACCGAAUCGGGGAAAAAAGGGGAAAAAAGGAAAAAAGGGAAAGUAUUAUGUUACGCCGUUCGGAUCUGCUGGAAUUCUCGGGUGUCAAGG: -1.73
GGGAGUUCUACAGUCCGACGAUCUUUCACUUCCAGCCAGCUGUGAAGAAGGUGAGCUUGCCUUCCAUCUUCCCCCCUAUCCGCCGCGUAUCUCCGUCGUCUGCAAGCGCGUGAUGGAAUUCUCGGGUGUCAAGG: -0.258
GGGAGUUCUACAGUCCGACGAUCCUCAAGUCCUGUGCUACACAUCGUAUGUACCGAAUCGGUUUUUGGAGGAAAGGAAAGUAUUAUGUUACGCCGUUCGGAUCUGCACUUCCAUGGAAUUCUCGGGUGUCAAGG: -1.1
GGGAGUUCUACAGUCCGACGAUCCCUGUGCUACACAUCGUAUGUACCGAAUCGGGCCCCCCCGGCCCCCCCGGGCCCCCCCGGGAAAGUAUUAUGUUACGCCGUUCGGAUCUGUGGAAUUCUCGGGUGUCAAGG: -1.51
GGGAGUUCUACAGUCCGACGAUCCAAGUCCUGUGCUACACAUCGUAUGUACCGAAUCGGGAAAGGGUGGGUUUUUGGGAAAGUAUUAUGUUACGCCGUUCGGAUCUGCACUUCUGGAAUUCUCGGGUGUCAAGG: 1.52
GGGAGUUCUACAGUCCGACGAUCCUGUGCUACACAUCGUAUGUACCGAAUCGGGGCCCCCCCGGGGCCCCCCCGGCCCCCCCGGAAAGUAUUAUGUUACGCCGUUCGGAUCUGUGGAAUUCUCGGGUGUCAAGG: -1.67
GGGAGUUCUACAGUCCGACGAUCCUGUGCUACACAUCGUAUGUACCGAAUCGGGGUUUUUUUGGUUUUUUUGGUUUUUUUGGGGAAAGUAUUAUGUUACGCCGUUCGGAUCUGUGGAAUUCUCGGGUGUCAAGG: -1.61

Set 4 — method: RNA Bind-n-Seq; form: RNA; sample: in vitro; concentration: 20 nM; setting: 6-mer, flanks averaged, single round; added: 150 mM KCl; relative to: input library; direction: higher = stronger binding; measurement: 6-mer enrichment (R)
Target: TAR DNA-binding protein 43, full length, His tag (TARDBP, Homo sapiens, UniProt Q13148, residues 1-414)
GACAUC: 0.698
GGAUUA: 0.827
UUUCAA: 0.572
AAUAAA: 0.93
AGCAAA: 0.696
AGAACA: 0.783
GUGACA: 0.891
AGGGCA: 2.38
UACUCA: 0.551
CAUCAA: 0.605
CGGGAA: 2.12
CAGCGU: 0.874
AAGGUG: 1.39
GGGUGG: 8.77
UUCAAA: 0.59
ACUGUG: 0.882
CCUUUU: 0.694
CAACGA: 0.669
GAGUUC: 0.728
CGCAGG: 1.64
UGAAUU: 0.641
GUCGCU: 0.812
CACAUG: 0.716
AACGAC: 0.607
AAAGAU: 0.591

Some of these lines once more (set 4):
UUCAAA: 0.59
ACUGUG: 0.882
CCUUUU: 0.694
CAACGA: 0.669
GAGUUC: 0.728
CGCAGG: 1.64
UGAAUU: 0.641
GUCGCU: 0.812
CACAUG: 0.716
AACGAC: 0.607
